Experimental data from different studies.
Lines come from different studies, so protocols differ. Numbers after ± are the reported error.
Technique: steady-state kinetics
B1: enzyme N1029G (Limosilactobacillus reuteri, UniProt Q5SBN3); chain INGQQYYIDPTTGQPRKNFLLQNGNDWIYFDKDTGAGTNALKLQFDKGTISADEQYRRGNEAYSYDDKSIENVNGYLTADTWYRPKQILKDGTTWTDSKETDMRPILMVWWPNTVTQAYYLNYMKQYGNLLPASLPSFSTDADSAELNHYSELVQQNIEKRISETGSTDWLRTLMHEFVTKNSMWNKDSENVDYGGLQLQGGFLKYVNSDLTKYANSDWRLMNRTATNIDGKNYGGAEFLLANDIDNSNPVVQAEELNWLYYLMNFGTITGNNPEANFDGIRVDAVDGVDVDLLSIARDYFNAAYNMEQSDASANKHINILEDWGWDDPAYVNKIGNPQLTMDDRLRNAIMDTLSGAPDKNQALNKLITQSLVNRANDNTENAVIPSYNFVRAHDSNAQDQIRQAIQAATGKPYGEFNLDDEKKGMEAYINDQNSTNKKWNLYNMPSAYTILLTNKDSVPRVYYGDLYQDGGQYMEHKTRYFDTITNLLKTRVKYVAGGQTMSVDKNGILTNVRFGKGAMNATDTGTDETRTEGIGVVISNNTNLKLNDGESVVLHMGAAHKNQKYRAVILTTEDGVKNYTNDTDAPVAYTDANGDLHFTNTNLDGQQYTAVRGYANPDVTGYLAVWVPAGAADDQDARTAPSDEAHTTKTAYRSNAALDSNVIYEGFSNFIYWPTTESERTNVRIAQNADLFKSWGITTFELAPQYNSSKDGTFLDSIIDNGYAFTDRYDLGMSTPNKYGSDEDLRNALQALHKAGLQAIADWVPDQIYNLPGKEAVTVTRSDDHGTTWEVSPIKNVVYITNTIGGGEYQKKYGGEFLDTLQKEYPQLFSQVYPVTQTTIDPSVKIKEWSAKYFNGTNILHRGAGYVLRSNDGKYYNLGTSTQQFLPSQLSVQDNEGYGFVKEGNNYHYYDENKQMVKDAFIQDSVGNWYYFDKNGNMVANQSPVEISSNGASGTYLFLNNGTSFRSGLVKTDAGTYYYDGDGRMVRNQTVSDGAMTYVLDENGKLVSESFDSSATEAHPLKPGDLNGQK
B2: enzyme R237K (Acetivibrio thermocellus, UniProt A3DJ38); chain MKLTIPELSLVVLIGSSGSGKSTFAKKHFKPTEVISSDFCRGLVSDDENDQTVTGAAFDVLHYIVSKRLQLGKLTVVDATNVQESARKPLIEIAKDYHCFPVAVVFNLPEKVCQERNKNRTDRQVEEYVIRKHTQQLKKSIKGLQREGFRYVYILNSPEEVEEVVFERQPLWNNKKDEHGPFDIIGDIHGCYDELKMLLEKLGYLIEEVEGGVGSGKYRVTHPEGRKVLFLGDLVDKGPKITEVLKLVMGMVKSGIALCVPGNHDVKLLRKLNGRDVQITHGLDRTLEQLAKEPQEFIEEVKAFIDGLVSHYVLDDGKLVVAHAGMKEEFQGRGSGKVREFALYGETTGETDEYGLPVRYDWASDYRGKALVVYGHTPQAEVLKVNNTINIDTGCVFGGKLTAYRYPEREIVDVKALKTYYEPAKPFLPKEDMAERFEARTDNDILDINDVLGKKIITTRLMSSITIHEENSIAALEVMSRFAADPHWLIYLPPTMSPCETSKKEGMLEHPIEAFEYFRTRGVGKVVCEQKHMGSRAVVIVCKDSQVAEKRFGVLDGTAGICYTRTGRHFFDDMQLEAELIDRVRKVLDKSGFWGDFNTDWVCLDCELMPWSAKAQKLLEEQYSAVGISGRVVLDEAVKLLKQASLNKTVSFDVSRQTSGKNADINELLQRFTERSEMMQKYVEAYRKYCWPVNSIDDLKLAPFHILATEGKVHSDKNHIWHMDTIAKYCTQDDSLIMATNHILVDVTDAESVDKGIKWWEDLTASGGEGMVVKPYDFIVKNGRELLQPAVKCRGREYLRIIYGPEYTMDENIERLRNRAVGKKRSLALREFSLGMEALERFVRNEPLYRVHECVFGVLALESEPVDPRL
B3: CPN1 (Homo sapiens, UniProt P15169); chain VTFRHHRYDDLVRTLYKVQNECPGITRVYSIGRSVEGRHLYVLEFSDHPGIHEPLEPEVKYVGNMHGNEALGRELMLQLSEFLCEEFRNRNQRIVQLIQDTRIHILPSMNPDGYEVAAAQGPNKPGYLVGRNNANGVDLNRNFPDLNTYIYYNEKYGGPNHHLPLPDNWKSQVEPETRAVIRWMHSFNFVLSANLHGGAVVANYPYDKSFEHRVRGVRRTASTPTPDDKLFQKLAKVYSYAHGWMFQGWNCGDYFPDGITNGASWYSLSKGMQDFNYLHTNCFEITLELSCDKFPPEEELQREWLGNREALIQFLEQVHQGIKGMVLDENYNNLANAVISVSGINHDVTSGDHGDYFRLLLPGIYTVSATAPGYDPETVTVTVGPAEPTLVNFHLKRSIPQVSPVRRAPSRRHGVRAKVQPQARKKEMEMRQLQRGPA
B4: enzyme L163H/N249W (Thermobifida fusca, UniProt Q47RK4); chain MTDVYILDAVRTPFGRYGGALSGIRPDDLAAHVLRALAERSPGLDPAAVDDVFFGDANGAGEDNRNVARMAALLAGWPTSVPGVTLNRLCGSGMESVIAANRAIAVGDASLAVAGGVESMSRAPWVLPKPAQGFPTGHETLYSTTLGWRMVNPAMPEQWTVSHGESTEQVAATYGISRAEQDAFALRSHERAARAWAEGVFDAEITQIPGAELERDESIRETSAEKLAALKPAFRPDGTITAGNASPLWDGAAALLIGDAAAAERVGREPLARIVSRGVAAVDPDVFGIGPVQAAEIALRRAGIGWDDLSVVELNEAFAAQSLACLKLWPDLDPEIVNPNGGAIAIGHPLGASGARIVGTLAHELHRRGGGWGLAAICIGVGQGLAVVLHR
B5: protein (Rhodopseudomonas palustris, UniProt Q6N3R9); chain MSNVRVLATDLAFPEGPVVMPDGSVVLVEIRAQQLTRVWPDGRKEVVAKVPGGPNGAALGPDGKMYICNNGGFGWFPSRGTMMPGAPAPHEYIGGSIQRVDLQSGEVETLFDKCGEHPLKGPNDLVFDKHGGLWFTDLGKRRARDMDVGAAYYIKPGMTEITEQVFGTLPLNGIGLSPDEATMYAAETPTGRLWAFDLSGPGEVKPRDVIYRGEKGKPICGLGGYQMFDSLAVEASGNVCVATLVSGCISVIAPDGTLVEQVPTGDRVTTNIAFGGPDLKTAYITLSGKGELIAMDWSRPGLPLNFLNK
B6: nitrilase Y142F (Rhodococcus rhodochrous, UniProt A4LA85); chain MVEYTNTFKVAAVQAQPVWFDAAKTVDKTVSIIAEAARNGCELVAFPEVFIPGYPYHIWVDSPLAGMAKFAVRYHENSLTMDSPHVQRLLDAARDHNIAVVVGISERDGGSLYMTQLIIDADGQLVARRRKLKPTHVERSVFGEGNGSDISVYDMPFARLGALNCWEHFQTLTKYAMYSMHEQVHVASWPGMSLYQPEVPAFGVDAQLTATRMYALEGQTFVVCTTQVVTPEAHEFFCENEEQRKLIGRGGGFARIIGPDGRDLATPLAEDEEGILYADIDLSAITLAKQAADPVGHYSRPDVLSLNFNQRRTTPVNTPLSTIHATHTFVPQFGALDGVRELNGADEQRALPSTHSDETDRATASI
B7: YjiA C66A/C67A/E37A (Escherichia coli, UniProt P24203); chain MNPIAVTLLTGFLGAGKTTLLRHILNEQHGYKIAVIANEFGEVSVDDQLIGDRATQIKTLTNGCIAASRSNELEDALLDLLDNLDKGNIQFDRLVIECTGMADPGPIIQTFFSHEVLCQRYLLDGVIALVDAVHADEQMNQFTIAQSQVGYADRILLTKTDVAGEAEKLHERLARINARAPVYTVTHGDIDLGLLFNTNGFMLEENVVSTKPRFHFIADKQNDISSIVVELDYPVDISEVSRVMENLLLESADKLLRYKGMLWIDGEPNRLLFQGVQRLYSADWDRPWGDEKPHSTMVFIGIQLPEEEIRAAFAGLRK
UniProt Q06528, sequence (whole entry, looked up): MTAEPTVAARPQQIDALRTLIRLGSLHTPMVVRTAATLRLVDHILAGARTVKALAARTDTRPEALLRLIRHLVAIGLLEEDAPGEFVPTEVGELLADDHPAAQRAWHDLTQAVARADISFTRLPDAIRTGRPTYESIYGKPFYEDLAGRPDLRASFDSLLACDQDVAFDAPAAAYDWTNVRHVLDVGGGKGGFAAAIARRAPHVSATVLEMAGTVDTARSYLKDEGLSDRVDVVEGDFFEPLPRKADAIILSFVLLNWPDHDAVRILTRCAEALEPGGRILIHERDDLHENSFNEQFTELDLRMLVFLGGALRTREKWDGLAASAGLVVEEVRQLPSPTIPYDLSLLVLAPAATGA
UniProt P33378, sequence (whole entry, looked up): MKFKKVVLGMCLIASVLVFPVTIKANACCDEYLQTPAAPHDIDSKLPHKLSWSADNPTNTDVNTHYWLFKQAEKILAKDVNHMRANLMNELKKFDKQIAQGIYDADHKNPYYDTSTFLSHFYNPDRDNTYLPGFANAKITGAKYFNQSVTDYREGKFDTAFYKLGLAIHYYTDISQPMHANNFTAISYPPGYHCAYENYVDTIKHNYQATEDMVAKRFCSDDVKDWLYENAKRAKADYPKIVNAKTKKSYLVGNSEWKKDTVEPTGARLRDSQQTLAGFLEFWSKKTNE
UniProt Q99042, sequence (whole entry, looked up): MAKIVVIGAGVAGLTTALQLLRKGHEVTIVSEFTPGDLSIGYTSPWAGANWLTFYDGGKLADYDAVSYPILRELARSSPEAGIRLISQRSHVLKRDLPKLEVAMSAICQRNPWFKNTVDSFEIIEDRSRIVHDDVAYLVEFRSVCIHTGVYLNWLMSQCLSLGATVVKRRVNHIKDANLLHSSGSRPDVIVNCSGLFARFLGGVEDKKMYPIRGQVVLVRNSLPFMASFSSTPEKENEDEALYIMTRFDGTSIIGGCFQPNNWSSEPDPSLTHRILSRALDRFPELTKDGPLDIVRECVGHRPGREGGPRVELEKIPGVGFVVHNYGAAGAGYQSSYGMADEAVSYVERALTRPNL

pvdF (Pseudomonas aeruginosa, UniProt Q9I184)
kcat (Nc1nc(O)c2cc(CN(C=O)c3ccc(C(=O)N[C@@H](CCC(=O)O)C(=O)O)cc3)ccc2n1; pH 7.4, 25 °C): 1.7 ± 0.1 s⁻¹

B1 (enzyme N1029G)
kcat (OC[C@H]1O[C@@](CO)(O[C@H]2O[C@H](CO)[C@@H](O)[C@H](O)[C@H]2O)[C@@H](O)[C@@H]1O; pH 4.7, 37 °C): 32.7 ± 1.2 s⁻¹

B2 (enzyme R237K)
kcat (Nc1ncnc2c1ncn2[C@@H]1O[C@H](CO)[C@H]2OP(=O)(O)O[C@H]21; pH 7.5, 45 °C): 26.2 ± 1.57 s⁻¹

B3 (CPN1)
kcat (C[C@H](NC(=O)[C@H](Cc1ccccc1)NC(=O)[C@H](CCC(N)=O)NC(=O)CNC(=O)[C@@H]1CCCN1C(=O)[C@H](Cc1ccccc1)NC(=O)[C@@H](N)Cc1ccc(O)cc1)C(=O)N[C@@H](Cc1ccccc1)C(=O)N[C@@H](CO)C(=O)N[C@@H](CCCCN)C(=O)O; 37 °C): 80.3 ± 5 s⁻¹

B4 (enzyme L163H/N249W)
kcat (CC(=O)SCCNC(=O)CCNC(=O)[C@H](O)C(C)(C)COP(=O)(O)OP(=O)(O)OC[C@H]1O[C@@H](n2cnc3c(N)ncnc32)[C@H](O)[C@@H]1OP(=O)(O)O; pH 7.4, 37 °C): 0.00367 ± 0.0006 s⁻¹

dnrK (Streptomyces peucetius, UniProt Q06528)
kcat (O=[N+]([O-])c1ccc(O)c(Cl)c1; pH 8, 37 °C): 0.000317 ± 1.67e-05 s⁻¹

DAO1 (Trigonopsis variabilis, UniProt Q99042)
kcat (O=C1C(Cl)=CC(=Nc2ccc(O)cc2)C=C1Cl; pH 8, 22 °C, varied electron acceptor, apparent, together with: D-methionine 200 mM): 0.033 ± 0.001 s⁻¹

plcB (Listeria monocytogenes, UniProt P33378)
kcat (CCCCCC(=O)OC[C@H](COP(=O)([O-])OCC[N+](C)(C)C)OC(=O)CCCCC; pH 6, 37 °C): 12.8 ± 1.5 s⁻¹

B5 (protein)
kcat (CC(=O)Oc1ccccc1; pH 8.3, NaCl 150 mM, no saturation, together with: CaCl2 1 mM): > 38.6 s⁻¹

B6 (nitrilase Y142F)
kcat (N#CCCCC#N; pH 7.5, 25 °C): 0.0001767 ± 1.67e-06 s⁻¹

B7 (YjiA C66A/C67A/E37A)
kcat (Nc1nc2c(ncn2[C@@H]2O[C@H](COP(=O)(O)OP(=O)(O)OP(=O)(O)O)[C@@H](O)[C@H]2O)c(=O)[nH]1; pH 7.6, 37 °C, apo, anaerobic, together with: MgCl2 5 mM): 0.0005 ± 0.0001 s⁻¹

For quick reference, copied from above:
plcB (Listeria monocytogenes, UniProt P33378)
kcat (CCCCCC(=O)OC[C@H](COP(=O)([O-])OCC[N+](C)(C)C)OC(=O)CCCCC; pH 6, 37 °C): 12.8 ± 1.5 s⁻¹
